Assay results collected from several papers.
Compare with care: the assays were run in different laboratories. “And” joins repeats or separate records; there may be more than shown. Numbers after ± are the reported error.

| SMILES | tested on | test | test system | conditions | how to read | endpoint | value |
| --- | --- | --- | --- | --- | --- | --- | --- |
| CCCN(C)c1cc(C(F)(F)F)nc(SCCC(=O)NCc2ccco2)n1 | – | – | Wistar rat, plasma | intraperitoneal, 25 mg/kg, 2 h post-dose | relative to: vehicle control | plasma LDH | no effect |
| CCCCN1C(=O)c2cccc3c(NCCCCCCCCN4CCOCC4)ccc(c23)C1=O | – | – | methanol | – | – | Stokes shift | 98 nm |
| O=C([O-])CN1CCN(CC(=O)[O-])CCN(C(CO)C(O)CO)CCN(CC(=O)[O-])CC1.[Dy+3] (stereo not drawn) | – | – | cynomolgus monkey, kidney cortex | dose not given, day 58 | – | lanthanide concentration | 0.16 ± 0.09 nmol/g |
| CCCCCCCC(=O)OC[C@H](NC(=O)[C@H](CO)NC(=O)CN)C(=O)N[C@@H](Cc1ccccc1)C(=O)N[C@@H](CC(C)C)C(=O)N[C@@H](CO)C(=O)N1CCC[C@H]1C(=O)N[C@@H](CCC(=O)O)C(=O)N[C@@H](Cc1cnc[nH]1)C(=O)N[C@@H](CCC(N)=O)C(=O)N[C@@H](CCCNC(=N)N)C(=O)N[C@H](C(=O)N[C@@H](CCC(N)=O)C(=O)N[C@@H](CCC(N)=O)C(=O)N[C@@H](CCCNC(=N)N)C(=O)N[C@@H](CCCCN)C(=O)N[C@@H](CCC(=O)O)C(=O)N[C@@H](CO)C(=O)N[C@@H](CCCCN)C(=O)N[C@@H](CCCCN)C(=O)N1CCC[C@H]1C(=O)N1CCC[C@H]1C(=O)N[C@@H](C)C(=O)N[C@@H](CCCCN)C(=O)N[C@@H](CC(C)C)C(=O)N[C@@H](CCC(N)=O)C(=O)N1CCC[C@H]1C(=O)N[C@@H](CCCNC(=N)N)C(=O)O)C(C)C | – | manual cuff, measured: dBP | human, chronic HFrEF patients | intravenous infusion, 0.1 µg/kg/min over 120 min, follow-up day 2-5, median | – | blood pressure | 70 mm Hg |
| C=CC(=O)Nc1cc(Nc2nccc(-c3c[nH]c4ccccc34)n2)c(OC)cc1N(C)CCN(C)C | – | storage stability | human dried blood spots | 5 h, -80 °C, low QC level | – | recovery | 99.2% |
| CN(O)C(=O)CCC(=O)NCCCN(CCCCN(CCCNC(=O)CCC(=O)N(C)O)C(=O)CCC(=O)N(C)O)C(=O)CCC(=O)N(C)O.[89Zr] | – | radio-TLC | aqueous buffer | 3 d, pH 8.5, 37 °C, 89Zr-labelled complex, together with: DTPA 100-fold excess | – | intact complex | 99.4 ± 0.6% |
| CCC1CNC(CC)CN(C(C(=O)[O-])c2ccc(C(=O)[O-])cc2)C(CC)CN(CC(=O)[O-])C(CC)CN1.[Mn+2] (stereo not drawn) | – | ICP-MS | BALB/c mouse, liver | intravenous, 0.05 mmol/kg, 1440 min, without anaesthesia | – | Mn content | 1.45 ± 0.36 µg/g |
| COc1cc(-c2nc3ccccc3s2)cc(CN2CCN(C)CCN(Cc3cc(-c4nc5ccccc5s4)cc(OC)c3O)CC2)c1O | – | UV-vis spectrophotometric titration | aqueous NaCl 0.1 M | 20 µM, 25 °C, pH 3 to 11 | – | pKa3 | 8.19 |
| CCCCN1C(=O)c2cccc3c(NCCCCCCCCCCN4CCOCC4)ccc(c23)C1=O | – | – | 1,4-dioxane | – | – | fluorescence quantum yield | 1.13 |
| N[C@@H](CNC(=O)N[C@@H](CS)C(=O)NCC(=O)O)C(=O)O | – | – | mouse C57BL/6, brain homogenate | intraperitoneal, 500 mg/kg, 2 h | – | brain exposure per dose | 14.7 ± 6.68 µM·h/dose |
| CC(C)Cc1ccc(C(C)C(=O)N[C@@H](CCCCNC(=O)CCOCCOCCOCCOCCOCCOCCNC(=O)CN2CCN(CC(=O)[O-])CCN(CC(=O)[O-])CCN(CC(=O)[O-])CC2)C(=O)Nc2cccc3c(C(=O)NCC(=O)N4CC(F)(F)C[C@H]4C#N)ccnc23)cc1.[177Lu+3] (stereo partly drawn) | – | – | PBS | 1 h, 37 °C, 177Lu-labelled | – | radiochemical stability | 99.42 ± 0.2% |
| O=C1c2sc(-c3ccc(N4CCC(CO)CC4)nc3F)nc2CCN1c1cccnc1 | – | – | CD1 mouse, brain | i.v., dose not given, 0.25 h | – | concentration | 58.7 ng/g and 40.3 ng/g and 51.5 ng/g |
| COc1cccc(OC)c1-c1cc(C(=O)NC2(C(=O)O)C3CC4CC(C3)CC2C4)nn1-c1ccc(C(=O)NCCNC(=O)[C@H](CCCCNC(=O)[C@H](CC(C)C)NC(=O)C2OC2C(=O)O)NC(=O)CN2CCN(CC(=O)[O-])CCN(CC(=O)[O-])CCN(CC(=O)[O-])CC2)cc1C(C)C.[177Lu+3] (mixture of isomers) | – | – | mouse HT-29 xenograft | 4 h, biodistribution | relative to: tumour over stomach | tumour-to-stomach ratio | 27.7 |
| O=C1c2sc(-c3ccc(N4CCC(F)C4)nc3F)nc2CCN1c1cccnc1 (stereo not drawn) | – | – | CD1 mouse, brain | i.v., dose not given, 0.033 h | – | concentration | 647 ng/g and 542 ng/g and 652 ng/g |
| C=CC(=O)Nc1cccc(Cn2ncc3cnc(Nc4cnn(CCOC)c4)nc32)c1 | – | – | mouse, CD-1, both sexes, whole blood | 5 µM, 15 min | – | remaining compound | 85.3% |
| N#C[C@@H]1CC(F)(F)CN1C(=O)CNC(=O)c1ccnc2c(NC(=O)C(N)CCCCNC(=O)CCOCCOCCOCCOCCOCCOCCNC(=O)CN3CCN(CC(=O)[O-])CCN(CC(=O)[O-])CCN(CC(=O)[O-])CC3)cccc12.[68Ga+3] (stereo partly drawn) | – | – | human serum | 120 min, 37 °C, 68Ga-labelled | – | radiochemical stability | 99.14 ± 0.3% |
| Nc1ncnc2[nH]c(/C=C/c3ccc(F)cc3)nc12 | – | HPLC | solution, dark | before light exposure | – | purity | 100% |
| [123I]c1ccc2nc(-c3ccc(-n4ccnn4)nc3)cn2c1 | – | – | male Wistar rat, brain | intravenous, 4 MBq, 3 h | – | tracer uptake | 0.006 %ID/g |

| SMILES | tested on | test | test system | conditions | how to read | endpoint | value |
| --- | --- | --- | --- | --- | --- | --- | --- |
| CN(Cc1cc(C2CC2)on1)C(=O)c1cccc(-c2ccc(F)cc2)c1 | – | – | male ICR/CD-1 mouse, liver microsomes | 2 µM, 5 min, pH 7.5, together with: 1-aminobenzotriazole 500 µM, preincubated 30 min | – | remaining compound | 89.6% |
| [11CH3]N1CCC(NC(=O)c2cc(-c3c(O)cc(O)cc3Oc3ccc([N+](=O)[O-])cc3)on2)CC1 | – | – | healthy female Wistar rats, blood | intravenous, 10 min | – | standardized uptake value | 1.4 ± 0.2 g/mL |
| C=C(NC(=O)c1csc(-c2nc3c(cc2O)-c2nc(cs2)C(=O)NC(C(C)O)C(=O)NC(=C(C)OC)c2nc(cs2)C(=O)NC2c4nc(cs4)C(=O)NC(COC(=O)c4c5c6c(cccc6n4O)COC(=O)C(OC4CC(C)(O)C(N(C)C)C(C)O4)C2OC5)c2nc-3cs2)n1)C(N)=O (stereo not drawn) | – | – | Sprague-Dawley rat, male, plasma | intravenous infusion, 18 mg/kg single dose | – | clearance | 59.7 mL/min/kg |
| Cc1cc(-c2ccc(C(=O)[C@@H]3CCCC[C@H]3C(=O)Nc3cnn4c3C(=O)NCC4)cc2)[nH]n1 | – | – | human, faeces | oral, 200 mg, 0-168 h | relative to: dose | cumulative recovery of radioactivity | 72.9% |
| C[n+]1ccc(/C=N/NC(=O)c2cncc(C(=O)N/N=C/c3cc[n+](C)c4ccccc34)n2)c2ccccc21 | MYC promoter parallel G-quadruplex DNA | UV melting | – | 3 µM, 1 mM potassium, together with: DNA 3 µM | – | delta Tm | 13.2 °C |
| CCCCN1C(=O)c2cccc3c(NCCCN4CCOCC4)ccc(c23)C1=O | – | – | ethyl acetate | – | – | Stokes shift | 80 nm |
| CC(C)(O)c1ncc([S@](N)(=O)=NC(=O)Nc2c3c(cc4c2CCC4)CCC3)s1 | – | measured: general and administration-site disorders | healthy human volunteers | oral, 200 mg once daily, 14 days, spray-dried dispersion | – | subjects with adverse events | 14% |
| CC(C(=O)O)n1nc(Cn2cc3cc(OCC[18F])c(Cl)cc3n2)c2ccccc2c1=O (racemic) | – | PET | C57BL/6 mouse male | 40 min | – | brain uptake | 0.19 %ID/g |
| Fc1cccc(COc2ccc(Nc3ncnc4ccc(-c5ccc(N6CCCCC6)cc5)cc34)cc2Cl)c1 | Leishmania major | intracellular amastigote growth, luciferase | RAW264.7 macrophages | – | – | EC50 | 5 µM |
| CCCCN1C(=O)c2cccc3c(NCCN4CCOCC4)ccc(c23)C1=O | – | – | dichloromethane | – | – | Stokes shift | 77 nm |
| O=C(Nc1cnccc1-c1ccc([18F])cc1)c1ccnc(NC(=O)C2CC2)c1 | – | ex vivo gamma counting | GSK-3β transgenic mice, early-stage, hippocampus | intravenous, 120 min, mean, P-gp inhibitor pretreatment, together with: tariquidar 15 mg/kg iv | – | SUV | 0.26 |
| COc1cccc(OC)c1-c1cc(C(=O)NC2(C(=O)O)C3CC4CC(C3)CC2C4)nn1-c1ccc(C(=O)N(C)CCOCCOCCN(C)C(=O)[C@H](CCCCNC(=O)[C@H](CC(C)C)NC(=O)C2OC2C(=O)O)NC(=O)CN2CCN(CC(=O)[O-])CCN(CC(=O)[O-])CCN(CC(=O)[O-])CC2)cc1C(C)C.[177Lu+3] (mixture of isomers) | – | – | mouse HT-29 xenograft | 168 h, biodistribution | relative to: tumour over stomach | tumour-to-stomach ratio | 25.1 |
| CC1(C)CC[C@@]2(CO)C(=C3C=C[C@@H]4[C@@]5(C)CC[C@H](O)[C@@](C)(CO)[C@@H]5CC[C@@]4(C)[C@]3(C)C[C@@H]2O)C1 | – | UHPLC-MS/MS | mouse, plasma | oral, 50 mg/kg of saikosaponin a, 12 h | – | plasma concentration | 0 ng/mL |
| CNc1cc(N)c(C(N)=O)c[n+]1C | – | substrate, measured: methylated product | rats, plasma | oral, 30 mg/kg, 1.50 h | – | plasma concentration of product | 198 nM and 205 nM |
| COc1cc2ncnc(Oc3ccc(Nc4nccc5[nH]cc(-c6ccc(F)cc6)c(=O)c45)cc3F)c2cc1OC | – | – | male beagle dog, plasma | intravenous, 2 mg/kg | – | Vd | 0.69 L/kg |
| OCC1OC(n2cnc3c(NCc4ccc(Br)s4)ncnc32)C(O)C1O (stereo not drawn) | – | equilibrium dialysis | human plasma | 0.5 µg/mL, 4 h, pH 7.4 | – | fraction unbound | 0.142 |
| CC[n+]1cccc2cc(/C=N/NC(=O)c3ccc4ccc(C(=O)N/N=C/c5ccc6c(ccc[n+]6CC)c5)nc4n3)ccc21 | hp2 hairpin duplex DNA | FRET melting | – | 1 µM, together with: ds26 10 µM | – | ΔTm | 0.9 ± 0.1 °C |
| O=C(c1cccc(-c2ccc3ncnc(Nc4ccc(OCc5cccc(F)c5)c(Cl)c4)c3c2)c1)N1CCOCC1 | Leishmania major | intracellular amastigote growth, luciferase | RAW264.7 macrophages | – | – | EC50 | > 15 µM |

Some of these lines once more:
| SMILES | tested on | test | test system | conditions | how to read | endpoint | value |
| --- | --- | --- | --- | --- | --- | --- | --- |
| CN(O)C(=O)CCC(=O)NCCCN(CCCCN(CCCNC(=O)CCC(=O)N(C)O)C(=O)CCC(=O)N(C)O)C(=O)CCC(=O)N(C)O.[89Zr] | – | radio-TLC | aqueous buffer | 3 d, pH 8.5, 37 °C, 89Zr-labelled complex, together with: DTPA 100-fold excess | – | intact complex | 99.4 ± 0.6% |
| Nc1ncnc2[nH]c(/C=C/c3ccc(F)cc3)nc12 | – | HPLC | solution, dark | before light exposure | – | purity | 100% |
| N#C[C@@H]1CC(F)(F)CN1C(=O)CNC(=O)c1ccnc2c(NC(=O)C(N)CCCCNC(=O)CCOCCOCCOCCOCCOCCOCCNC(=O)CN3CCN(CC(=O)[O-])CCN(CC(=O)[O-])CCN(CC(=O)[O-])CC3)cccc12.[68Ga+3] (stereo partly drawn) | – | – | human serum | 120 min, 37 °C, 68Ga-labelled | – | radiochemical stability | 99.14 ± 0.3% |
